Experimental data pooled from the literature.
Lines come from different studies, so protocols differ. Values joined by “and” are separate records of one study, mostly repeats; a detail may differ. Numbers after ± are the reported error.

Compound	test	test system	conditions	tissue uptake
COc1cccc(OC)c1-c1cc(C(=O)NC2(C(=O)O)C3CC4CC(C3)CC2C4)nn1-c1ccc(C(=O)N(C)CCCN(C)C(=O)[C@H](CCCCNC(=O)[C@H](CC(C)C)NC(=O)C2OC2C(=O)O)NC(=O)CN2CCN(CC(=O)[O-])CCN(CC(=O)[O-])CCN(CC(=O)[O-])CC2)cc1C(C)C.[177Lu+3] (mixture of isomers)	–	mouse, HT-29 xenograft, HT-29 tumour	4 h post injection	5.2 %ID/g
[11CH3]N1CCC(NC(=O)c2cc(-c3c(O)cc(O)cc3Oc3ccc([N+](=O)[O-])cc3)on2)CC1	–	NMRI mouse, healthy, kidneys	intravenous, 5.5 MBq, 30 min	5.2 ± 1.9 %ID
O=C(O)CCCOc1ccc([18F])cc1-c1cc(-c2ccccc2C(F)(F)F)n(-c2ccccc2)n1	–	mouse, bladder	intravenous, dose not given, 30 min	0.02 ± 0.01 %ID/g
COc1ccc2c(c1)C(C)(C)C(/C=C/C1=C(Oc3ccc(C(=O)NCCCCOc4cc(CN(Cc5ccccn5)Cc5ccccn5)cc(CN(Cc5ccccn5)Cc5ccccn5)c4)cc3)C(=C/C=C3/N(CCCCS(=O)(=O)[O-])c4ccc(OC)cc4C3(C)C)CCC1)=[N+]2CCCCS(=O)(=O)[O-].O=[N+]([O-])[O-].O=[N+]([O-])[O-].[99Tc+].[C-]#[O+].[C-]#[O+].[C-]#[O+].[Zn+2]	–	BALB/c mouse, Staphylococcus aureus myositis, brain	12 h	0.03 %ID/g and 0.02 %ID/g
O=C([O-])CN1CCN(CC(=O)[O-])CCN(CC(=O)[O-])CC1.[44Sc+3]	–	BALB/c mouse, large intestine	intravenous, 1 h	0.06 ± 0.01 %ID/g
N#C[C@@H]1CC(F)(F)CN1C(=O)CNC(=O)c1ccnc2c(NC(=O)CCOCCOCCOCCOCCOCCOCCNC(=O)[C@H](CCCCNC(=O)CN3CCN(CC(=O)[O-])CCN(CC(=O)[O-])CCN(CC(=O)[O-])CC3)NC(=O)CCCc3ccc(I)cc3)cccc12.[177Lu+3]	–	mouse, U-87 MG tumour xenograft, spleen	48 h	0.4 ± 0.2 %ID/g
COc1cccc(OC)c1-c1cc(C(=O)NC2(C(=O)O)C3CC4CC(C3)CC2C4)nn1-c1ccc(C(=O)N(C)CCOCCOCCN(C)C(=O)[C@H](CCCCNC(=O)[C@H](CC(C)C)NC(=O)C2OC2C(=O)O)NC(=O)CN2CCN(CC(=O)[O-])CCN(CC(=O)[O-])CCN(CC(=O)[O-])CC2)cc1C(C)C.[177Lu+3] (mixture of isomers)	–	mouse, HT-29 xenograft, HT-29 tumour	72 h post injection	1.5 %ID/g
CN(Cc1ccccc1)C(=O)CN1CCN(CC(=O)[O-])CCN(Cc2cccc(C(=O)[O-])n2)CC1.[44Sc+3]	–	BALB/c mouse, small intestine	intravenous, 1 h	2.28 ± 0.44 %ID/g
Cc1n[nH]c(C)c1CCCOc1cc(C(=O)NCCCCC(NC(=O)CN2CCN(CC(=O)[O-])CCN(CC(=O)[O-])CCN(CC(=O)[O-])CC2)C(=O)NCC2CCC(C(=O)NC(Cc3ccc4ccccc4c3)C(=O)NCCCCC(NC(=O)NC(CCC(=O)O)C(=O)O)C(=O)O)CC2)ccc1F.[68Ga+3] (stereo not drawn)	PET/CT	mouse 22Rv1 xenograft, salivary gland	1 h	2.5 ± 0.65 %ID/g
COc1ccc(Nc2nc(Nc3ccc(OCCOCC[18F])cc3)ncc2Br)cc1	–	ICR mouse, S180 sarcoma-bearing, blood	intravenous, 370 kBq in 100 µL, 15 min	4.36 ± 0.62 %ID/g
N#C[C@@H]1CC(F)(F)CN1C(=O)CNC(=O)c1ccnc2c(NC(=O)[C@H](CCCCNC(=O)CCOCCOCCOCCOCCOCCOCCNC(=O)CN3CCN(CC(=O)[O-])CCN(CC(=O)[O-])CCN(CC(=O)[O-])CC3)NC(=O)CCCc3ccc(I)cc3)cccc12.[177Lu+3]	–	mouse, U-87 MG tumour xenograft, lung	4 h	5.22 ± 1.51 %ID/g
CCCC[C@H](NC(=O)CNC(=O)CNC(=O)[C@H](CCCCNC(=O)[C@H](CC(N)=O)NC(=O)C(C)c1ccc(CC(C)C)cc1)NC(=O)CN1CCN(CC(=O)O)CCN(CC(=O)O)CCN(CC(=O)O)CC1)C(=O)N[C@H]1CC(=O)NCCCC[C@@H](C(N)=O)NC(=O)[C@H](Cc2c[nH]c3ccccc23)NC(=O)[C@H](CCCNC(=N)N)NC(=O)[C@@H](Cc2ccccc2)NC(=O)[C@H](Cc2c[nH]cn2)NC1=O (stereo partly drawn) [lutetium-177 labelled]	–	C57 mouse, intestines	2 h	1.93 ± 0.43 %ID
O=C([O-])CN1CCN(CC(=O)[O-])CCN(Cc2cccc(C(=O)[O-])n2)CC1.[18F-].[Sc+3]	–	BALB/c mouse, large intestine	intravenous, 1 h	0.1 ± 0.02 %ID/g
O=C([O-])CN1CCN(CC(=O)O)CCN(CC(=O)[O-])CCN(CC(=O)NCC2CCC(C(=O)NC(Cc3ccc4ccccc4c3)C(=O)NCCCCC(NC(=O)NC(CCC(=O)O)C(=O)O)C(=O)O)CC2)CC1.[212Pb+2] (stereo not drawn)	item: 212Pb	athymic mouse, C4-2 prostate xenograft, femur	intravenous, dose not given, 2 h	not detected
CN(Cc1ccccc1)C(=O)CN1CCN(CC(=O)[O-])CCN(CC(=O)[O-])CC1.[18F-].[Sc+3]	–	BALB/c mouse, large intestine	intravenous, 1 h	0.31 ± 0.22 %ID/g
COc1ccc(Nc2nc(Nc3ccc(OCCOCCOCC[18F])cc3)ncc2Br)cc1	–	ICR mouse, S180 sarcoma-bearing, blood	intravenous, 370 kBq in 100 µL, 30 min	2.41 ± 0.15 %ID/g
CN(Cc1ccccc1)C(=O)CN1CCN(CC(=O)[O-])CCN(CC(=O)N(C)Cc2ccccc2)CC1.[44Sc+3]	–	BALB/c mouse, large intestine	intravenous, 1 h	0.26 ± 0.04 %ID/g
COc1cccc(OC)c1-c1cc(C(=O)NC2(C(=O)O)C3CC4CC(C3)CC2C4)nn1-c1ccc(C(=O)N(C)CCOCCN(C)C(=O)[C@H](CCCCNC(=O)[C@H](CC(C)C)NC(=O)C2OC2C(=O)O)NC(=O)CN2CCN(CC(=O)[O-])CCN(CC(=O)[O-])CCN(CC(=O)[O-])CC2)cc1C(C)C.[177Lu+3] (mixture of isomers)	–	mouse HT-29 xenograft, small intestine	4 h post injection, biodistribution	0.98 %ID/g
CN(Cc1ccccc1)C(=O)CN1CCN(CC(=O)N(C)Cc2ccccc2)CCN(Cc2cccc(C(=O)[O-])n2)CC1.[44Sc+3]	–	BALB/c mouse, large intestine	intravenous, 1 h	1.53 ± 0.66 %ID/g
COc1cccc(OC)c1-c1cc(C(=O)NC2(C(=O)O)C3CC4CC(C3)CC2C4)nn1-c1ccc(C(=O)N(C)CCCN(C)CCCN(C)C(=O)[C@H](CCCCNC(=O)[C@H](CC(C)C)NC(=O)C2OC2C(=O)O)NC(=O)CN2CCN(CC(=O)[O-])CCN(CC(=O)[O-])CCN(CC(=O)[O-])CC2)cc1C(C)C.[177Lu+3] (mixture of isomers)	–	mouse, HT-29 xenograft, spleen	72 h post injection	0.9 %ID/g
CC[C@H](C)[C@H](NC(=O)C[C@H](NC(=O)CN1CCN2CCN(CC1)CC(=O)[O][Al]([18F])[O]C(=O)C2)C(=O)O)C(=O)N[C@H]1CCc2cccc3c2N(C1=O)[C@H](C(=O)NCc1cn[nH]n1)C3	–	C57BL/6J mouse, MC-38 tumour, bone	30 min post injection, anti-PD-1 treated	0.52 ± 0.25 %ID/g

Repeated from above:
Compound	test	test system	conditions	tissue uptake
COc1cccc(OC)c1-c1cc(C(=O)NC2(C(=O)O)C3CC4CC(C3)CC2C4)nn1-c1ccc(C(=O)N(C)CCCN(C)C(=O)[C@H](CCCCNC(=O)[C@H](CC(C)C)NC(=O)C2OC2C(=O)O)NC(=O)CN2CCN(CC(=O)[O-])CCN(CC(=O)[O-])CCN(CC(=O)[O-])CC2)cc1C(C)C.[177Lu+3] (mixture of isomers)	–	mouse, HT-29 xenograft, HT-29 tumour	4 h post injection	5.2 %ID/g
COc1ccc(Nc2nc(Nc3ccc(OCCOCC[18F])cc3)ncc2Br)cc1	–	ICR mouse, S180 sarcoma-bearing, blood	intravenous, 370 kBq in 100 µL, 15 min	4.36 ± 0.62 %ID/g
CCCC[C@H](NC(=O)CNC(=O)CNC(=O)[C@H](CCCCNC(=O)[C@H](CC(N)=O)NC(=O)C(C)c1ccc(CC(C)C)cc1)NC(=O)CN1CCN(CC(=O)O)CCN(CC(=O)O)CCN(CC(=O)O)CC1)C(=O)N[C@H]1CC(=O)NCCCC[C@@H](C(N)=O)NC(=O)[C@H](Cc2c[nH]c3ccccc23)NC(=O)[C@H](CCCNC(=N)N)NC(=O)[C@@H](Cc2ccccc2)NC(=O)[C@H](Cc2c[nH]cn2)NC1=O (stereo partly drawn) [lutetium-177 labelled]	–	C57 mouse, intestines	2 h	1.93 ± 0.43 %ID
